Assay results pooled from the literature.
Lines come from different studies, so protocols differ. Several values in a cell are separate wells, animals, samples, runs or records. ± marks the error that the study gave.
CASP10: Caspase-10 (CASP10, Homo sapiens, UniProt Q92851)
CASP8: Caspase-8 (CASP8, Homo sapiens, UniProt Q14790)
DCPS: m7GpppX diphosphatase (DCPS, Homo sapiens, UniProt Q96C86)

Cc1ncsc1-c1ccc(CNC(=O)[C@@H]2C[C@@H](O)CN2C(=O)[C@@H](NC(=O)COCC(C)(COCCOCCOCCNC(=O)C[C@@H]2N=C(c3ccc(Cl)cc3)c3c(sc(C)c3C)-n3c(C)nnc32)COCCOCCOCCNC(=O)C[C@@H]2N=C(c3ccc(Cl)cc3)c3c(sc(C)c3C)-n3c(C)nnc32)C(C)(C)C)cc1 — cooperativity alpha (BRD4/VHL, BD1 (Homo sapiens, UniProt O60885+P40337); ternary complex binding, SPR multi-cycle kinetics; together with: BRD4 bromodomains; relative to: Kd binary over Kd ternary): 4.3
CC[C@H](C)[C@H](NC(=O)[C@@H](NC(=O)[C@H](CCCCN)NC(=O)[C@@H](N)[C@@H](C)O)C(C)C)C(=O)N[C@@H](CC(C)C)C(=O)N[C@@H](Cc1c[nH]cn1)C(N)=O — fibrillization plateau fluorescence (MAPT (Homo sapiens, UniProt P10636); ThT fluorescence; 0.1-fold over protein, 30 h, together with: tau 10 µM, heparin; relative to: untreated): 143 ± 7%
CC(=O)N[C@@H](CC(=O)O)C(=O)N[C@@H](Cc1ccc2ccccc2c1)C(=O)N[C@@H](C)C(=O)N[C@@H](CC(=O)O)C(=O)COC(=O)c1c(C)cccc1C — kinact/KI (CASP10; enzyme activity, inhibitor): 118000 M⁻¹ s⁻¹
CC[C@H](C)[C@H](NC(=O)[C@@H](NC(=O)[C@@H](NC(=O)[C@@H](NC(=O)[C@@H](N)CCCCN)C(C)C)C(C)C)C(C)C)C(=O)N[C@H](C(N)=O)[C@@H](C)O — ThT fluorescence (Microtubule-associated protein tau, PHF6* peptide (MAPT, Homo sapiens, UniProt P10636); fibril formation, ThT fluorescence; 1-fold of peptide, pH 7.4, together with: Ac-PHF6* 25 µM, heparin; relative to: untreated): 82 ± 1%
CC(=O)N[C@@H](CC(C)C)C(=O)N[C@@H](CCC(N)=O)C(=O)N[C@@H](CCC(=O)O)C(=O)N[C@@H](CC(=O)O)C(=O)COC(=O)c1c(C)cccc1C — kinact/KI (CASP10; enzyme activity, inhibitor): 242000 M⁻¹ s⁻¹
CCCCCCCO[C@H]1O[C@H](CO)[C@@H](O)[C@H](O)[C@@H]1O — -TΔS (Type 1 fimbrin D-mannose specific adhesin, lectin domain (fimH, Escherichia coli K-12, UniProt P08191); binding, isothermal titration calorimetry; 37 °C, global fit of two titrations): 3.99 kcal/mol
CC[C@H](C)[C@H](NC(=O)[C@H](CCC(=O)O)NC(=O)[C@H](Cc1ccc(I)cc1)NC(C)=O)C(=O)N[C@@H](CC(=O)O)C(=O)COC(=O)c1c(C)cccc1C — kinact/KI (CASP8; enzyme activity, inhibitor): 956000 M⁻¹ s⁻¹
C=CC(=O)N1CCN2c3nc(OC[C@@H]4C[C@@H](F)CN4C)nc4cc(-c5nc(N)cc(C)c5C(F)(F)F)c(Cl)c(c34)OC[C@@H]2C1 — selectivity ratio (GTPase KRas, GDP-bound (KRAS, Homo sapiens, UniProt P01116, G13D); TR-FRET nucleotide exchange; relative to: WT IC50 over G13D IC50): 1.6
C=C1C(=O)C2(C(=O)N3CCN(c4ccc(Br)cc4)CC3)CC(=O)CC1C2 (racemic) — kinact/KI (PTPN11 (Homo sapiens, UniProt Q06124); enzyme activity, covalent inhibitor; together with: pNPP substrate): 367 M⁻¹ s⁻¹
C#CCOC(=O)[C@@]1(C)C=C(C(=O)OC(C)(C)C)C(=O)CC1 — fraction bound (MAPK8 (Homo sapiens, UniProt P45983); D-peptide binding, inhibitor, FP peptide displacement; 3.125 µM; lower is stronger displacement): 0.925
ClC1C[N+]2=Cc3ccc4[n]3[Au-]23[n]2c(ccc2-c2nc5ccccc5nc2-4)C=[N+]3C1.F[P-](F)(F)(F)(F)F — Hill coefficient (DNA topoisomerase 1 (TOP1, Homo sapiens, UniProt P11387)): 2.2
Fc1ccc(Nc2nc(NC3CCCCC3)c3cc(Br)ccc3n2)cc1F — maximal inhibition (ADRB2 (Homo sapiens, UniProt P07550, V152G); β-arrestin2 recruitment, antagonist, BRET; mutant V152G; relative to: isoprenaline maximal response): 8.3%
CC(=O)N[C@@H](CCC(C)C)C(=O)N[C@@H](CCCC(=O)O)C(=O)N[C@@H](CO)C(=O)N[C@@H](CC(=O)O)C(=O)COC(=O)c1c(C)cccc1C — kinact/KI (CASP8; enzyme activity, inhibitor): 24000 M⁻¹ s⁻¹
Cc1cnc2nc1Nc1cccc(c1)COC/C=C/COCc1cc(ccc1OCCN1CCOCC1)N2 — remaining signal (Non-receptor tyrosine-protein kinase TYK2, JH1 (TYK2, Homo sapiens, UniProt P29597); cell-free assay; 0.1 µM): 57%
CCCCCC(O)/C=C/C=O (centres unmarked) — isoTOP-ABPP competition ratio (Desumoylating isopeptidase 1 (DESI1, Homo sapiens, UniProt Q6ICB0); competitive isoTOP-ABPP; Ramos soluble proteome; 100 µM, together with: iodoacetamide probe; relative to: DMSO over compound-treated, higher = stronger cysteine blockade): 2.6
C#CCCCCNC(=O)c1ccc(N(C(=O)C=C)c2ccc(Br)cc2)cc1 — reactivity ratio (ADP-ribosylhydrolase ARH3 (Homo sapiens, UniProt Q9NX46); mass spectrometry profiling, measured: ADPRHL2; H460 cell lysate; 100 µM over 10 µM, UniProt Q9NX46; relative to: high over low concentration): 1.86
C[n+]1cn([C@@H]2O[C@H](COP(=O)([O-])OP(=O)(O)CP(=O)(O)OP(=O)(O)OC[C@H]3O[C@@H](n4cnc5c(=O)[nH]c(N)nc54)[C@H](O)[C@@H]3O)[C@@H](O)[C@H]2O)c2nc(N)nc(O)c21 — hydrolysis (DCPS; substrate, HPLC; concentration not given, 15 min): 0%
CC(=O)N[C@@H](CC(=O)O)C(=O)N[C@@H](CO)C(=O)N[C@@H](C)C(=O)N[C@@H](CC(=O)O)C(=O)COC(=O)c1c(C)cccc1C — kinact/KI (CASP10; enzyme activity, inhibitor): 96000 M⁻¹ s⁻¹
CN(C)Cc1cc(-c2coc3cc(O)ccc3c2=O)ccc1Cl — DHEA metabolism (HSD3B1 (Homo sapiens, UniProt P14060); [3H]-DHEA conversion; LNCaP; 0.1 µM, normalized to protein, unit not given; relative to: vehicle): 2.1
Cc1cc(=O)oc2cc(NC(=O)CCCCCCCC(=O)NO)ccc12 — TΔS (HDAC8 (Homo sapiens, UniProt Q9BY41); ITC; Tris buffer; pH 7.5): 4.1 kcal/mol
CC[C@H](C)[C@@H]1NC(=O)[C@H](Cc2ccccc2)NC(=O)[C@H](CCC(=O)O)NC(=O)[C@H](CCCNC(=N)N)NC(=O)CNC(=O)[C@@H](NC(=O)[C@H](CC(C)C)NC(=O)[C@H](CCCNC(=N)N)NC(=O)[C@@H](NC(=O)CNC(=O)[C@H](Cc2ccc(O)cc2)NC(=O)[C@@H]2CCCN2C(=O)[C@H](C)NC(=O)[C@H](C)NC(=O)[C@@H](N)CCCNC(=N)N)C(C)C)CSSC[C@@H]2NC(=O)[C@@H](NC(=O)[C@H](CO)NC(=O)[C@H](CO)NC(=O)[C@H](CO)NC(=O)[C@H](CC(C)C)NC(=O)CNC(=O)[C@H](C)NC(=O)[C@H](CC(C)C)NC(=O)[C@@H](NC(=O)[C@@H](N)CC(=O)O)C(C)C)CSSC[C@H](NC(=O)CNC(=O)[C@H](Cc3c[nH]c4ccccc34)NC(=O)[C@H](CCCCN)NC2=O)C(=O)N[C@@H](CO)C(=O)N[C@@H](CCCCN)C(=O)N[C@@H](CO)C(=O)N[C@@H](CCC(=O)O)C(=O)N[C@@H]([C@@H](C)CC)C(=O)N[C@@H](CO)C(=O)N[C@@H](CO)C(=O)N[C@@H](CC(C)C)C(=O)N[C@H](C(=O)O)CSSC[C@@H](C(=O)NCC(=O)NCC(=O)N[C@@H](CO)C(=O)N[C@@H](CCCNC(=N)N)C(=O)N[C@@H](Cc2c[nH]c3ccccc23)C(=O)O)NC(=O)[C@H]([C@@H](C)O)NC(=O)[C@H](Cc2ccccc2)NC(=O)[C@H]([C@@H](C)CC)NC(=O)[C@H](C(C)C)NC(=O)[C@H](C)NC(=O)[C@H](CCCNC(=N)N)NC1=O — change in Emax (RXFP4 (Homo sapiens, UniProt Q8TDU9, F291A); F291A mutant; relative to: wild type): -47.1% and -50.2% and -42.2%
O=C(NC[C@@H](Cc1ccc(F)cc1)N1CCC(O)(C(F)(F)F)CC1)C1(c2ccc(Cl)cc2)CCCC1 — EC50 fold change (TRPA1 (Homo sapiens, UniProt O75762, M953V); calcium influx, agonist; relative to: M953V mutant over wild type): 15.3
CC(=O)N[C@@H](CCC(C)C)C(=O)N[C@@H](CCC(=O)O)C(=O)N[C@@H](C)C(=O)N[C@@H](CC(=O)O)C(=O)COC(=O)c1c(C)cccc1C — kinact/KI (CASP10; enzyme activity, inhibitor): 261000 M⁻¹ s⁻¹
C=CC(=O)N1CCCC(n2c(=O)c3ncccc3n(Cc3ccc(Oc4ccccc4)cc3)c2=O)C1 (centres unmarked) — melting temperature shift (Secernin-1 (SCRN1, Homo sapiens, UniProt Q12765); thermal proteome profiling, measured: SCRN1; 10 µM, destabilized proteins, unit not given; relative to: vehicle): -4.71
C[n+]1cn(C2OC(COP(=O)(O)OP(=O)([O-])C(Cl)(Cl)P(=O)(O)OP(=O)(O)OCC3OC(n4cnc5c(=O)[nH]c(N)nc54)C(O)C3O)C(O)C2O)c2nc(N)nc(O)c21 (centres unmarked) — hydrolysis (DCPS; substrate, HPLC; concentration not given, 120 min): 0%
Cn1cc(-c2cc(N3CCCCS3(=O)=O)ccc2N[C@H]2CC[C@H](C)CC2)c2cc[nH]c2c1=O (stereo in doubt) — remaining binding (BRPF3 (Homo sapiens, UniProt Q9ULD4); binding, competition with immobilised ligand; 1 µM): 94%
CCCCCC=CC=C1C(=O)C=CC1CC=CCCCC(=O)O (centres unmarked) — isoTOP-ABPP competition ratio (Bleomycin hydrolase (Homo sapiens, UniProt Q13867); competitive isoTOP-ABPP; Ramos soluble proteome; 100 µM, 60 min, together with: iodoacetamide probe; relative to: DMSO over compound-treated, higher = stronger cysteine blockade): 10
O=C1c2sc(-c3ccc(N4CCC(CO)CC4)nc3F)nc2CCN1c1cccnc1 — specific binding (TAR DNA-binding protein 43, aggregated (TARDBP, Homo sapiens, UniProt Q13148); radioligand binding; human, FTLD-TDP type B sarkosyl-insoluble extract; 72.89 nM): 2.61 nM and 1.68 nM
CN(C)CCCSC(=S)N1CCN(C(=O)/C=C/c2coc3ccccc3c2=O)CC1 — relative protein level (Nucleoprotein (N, Tomato spotted wilt virus, UniProt P25999); immunoblot, measured: N protein; concentration not given, 30 min, 25 °C, together with: RNA; relative to: level at 0 min): 0.959 and 1.33

Excerpt of the above:
CN(C)CCCSC(=S)N1CCN(C(=O)/C=C/c2coc3ccccc3c2=O)CC1 — relative protein level (Nucleoprotein (N, Tomato spotted wilt virus, UniProt P25999); immunoblot, measured: N protein; concentration not given, 30 min, 25 °C, together with: RNA; relative to: level at 0 min): 0.959 and 1.33
CCCCCCCO[C@H]1O[C@H](CO)[C@@H](O)[C@H](O)[C@@H]1O — -TΔS (Type 1 fimbrin D-mannose specific adhesin, lectin domain (fimH, Escherichia coli K-12, UniProt P08191); binding, isothermal titration calorimetry; 37 °C, global fit of two titrations): 3.99 kcal/mol
